Measurements gathered from unrelated publications.
Each line is one published result; not all experiments were run side by side.

CNC(=O)c1cc(Oc2ccc(NC(=O)Nc3cc(C(C)(C)C)nn3-c3ccc4ncccc4c3)c(F)c2)ccn1 — patients with visual abnormalities (patients; oral, dose not given, cycles 1 and 2, Medium Cmax subgroup): 33%
C[C@@H](c1ccc2nccn2c1)n1nnc2ncc(-c3cnn(C)c3)nc21 — patients with adverse events (measured: treatment-related grade ≥3 Vomiting; EGFR-mutant MET-altered NSCLC; oral, dose not given, all): 3%
CC(C)C[C@H](NC(=O)CNC(=O)c1cc(Cl)ccc1Cl)B(O)O — patients with adverse event (measured: Hypophosphataemia, all grades; newly diagnosed multiple myeloma patients; oral, dose not given, maintenance phase, new onset, cycle 17 or later): 17%
CCOc1c([C@H](C)n2nc(C)c3c(N)ncnc32)cc(Cl)c(F)c1[C@@H]1CNC(=O)C1 — patients with high heart rate (measured: heart rate > 100 bpm; previously treated B-cell malignancy; oral, 30 mg once daily): 7.7%
COc1cc(Nc2ncc3c(n2)-c2ccc(Cl)cc2C(c2c(F)cccc2OC)=NC3)ccc1C(=O)O — patients with adverse event (measured: Diarrhea, grade 3; cancer patients, phase 1/2; oral, dose not given, added: pembrolizumab): 4%
COc1ccc([C@@H](O)c2cc(-c3ncnc4cc(N5CCOCC5)ccc34)c(F)cc2Cl)nn1 — patients with TEAE (measured: Fatigue; locally advanced rectal cancer patients; dose not given, all dose groups, added: capecitabine plus radiotherapy): 47%
C=CC(=O)Nc1cc(Nc2nccc(-c3cn(C)c4ccccc34)n2)c(OC)cc1N(C)CCN(C)C — patients with treatment-related AEs (measured: Fatigue grade ≥3; EGFR-mutant MET-altered NSCLC; oral, study): 0%
FC(F)(F)c1ccc(CNc2ccc(Cc3c[nH]c4ncc(Cl)cc34)cn2)cn1 — patients with treatment-related adverse event (measured: aspartate aminotransferase increased; non-TGCT solid tumour patients; oral, 1000 mg/day, all grades): 8%
C[C@@H](Nc1cc(F)cc(F)c1)c1cc(C(=O)N(C)C)cc2c(=O)cc(N3CCOCC3)oc12 — patients with related SAE (CTCAE v4, measured: lung infection; patients with advanced solid tumours; oral, dose not given, phase I dose finding): 0%
C=CC(=O)NC1CCN(c2ncc3ncnc(Nc4ccc(Oc5ccc6c(c5)ncn6C)c(C)c4)c3n2)CC1 — patients with Headache (male patients; oral, dose not given, on-treatment adverse events): 0%
Cc1cc(NC2CCN(C(=O)OC3CCN(C(=O)/C=C/CN(C)C)C3)CC2)n2ncc(C(C)C)c2n1 (stereo not shown) — patients with adverse event (Phase I dose escalation CTCAE v4.0, measured: Flatulence; patients with advanced solid tumours; dose not given, all dose schedules any grade): 7%
NC(=O)N1c2ccccc2C=Cc2ccccc21 — patients with Diarrhea (male patients; oral, dose not given, treatment-related adverse events): 7%
COc1cc2nccc(Oc3ccc(NC(=O)c4cc5c(n(-c6ccccc6)c4=O)CCCC5=O)nc3)c2cc1OC — patients with TEAEs grade ≥3 (CTCAE; patients with relapsed/refractory AML; oral, 6 mg once daily): 100%
Cc1cc(-c2nnc(N)nc2-c2ccc(F)cc2)cc(Cl)n1 — patients with immune-mediated AE (measured: Rash; IO-naive mCRPC patients, male; oral, dose not given, treatment-related, grade 1): 0%
CNC(=O)c1ccc(-c2cnc3ncc(Cc4ccc5ncccc5c4)n3n2)cc1F — patients with adverse event (measured: Headache, all grades; hepatocellular carcinoma patients; oral, 600 mg twice daily, expansion cohort, any causality): 0%
O=C(Nc1nc2cccc(-c3ccc(CN4CCS(=O)(=O)CC4)cc3)n2n1)C1CC1 — patients with noninfective cystitis (rheumatoid arthritis patients; oral, 100 mg twice daily, 4 weeks, regardless of relatedness): 0%

Some of these lines once more:
CNC(=O)c1ccc(-c2cnc3ncc(Cc4ccc5ncccc5c4)n3n2)cc1F — patients with adverse event (measured: Headache, all grades; hepatocellular carcinoma patients; oral, 600 mg twice daily, expansion cohort, any causality): 0%
